Published values pooled from the literature.
A part holds a random share of what one study measured. Positions count from the first letter of the parent shown.

Sample 1 — target: CCNA2, cyclin fold, Cln2 fusion (human); technique: yeast growth competition, sequencing; medium: yeast; setting: strong parent motif; reference: not given; reading: higher = stronger binding
Parent: NPAT docking peptide (human); PCHRRVLCFDSTT; partner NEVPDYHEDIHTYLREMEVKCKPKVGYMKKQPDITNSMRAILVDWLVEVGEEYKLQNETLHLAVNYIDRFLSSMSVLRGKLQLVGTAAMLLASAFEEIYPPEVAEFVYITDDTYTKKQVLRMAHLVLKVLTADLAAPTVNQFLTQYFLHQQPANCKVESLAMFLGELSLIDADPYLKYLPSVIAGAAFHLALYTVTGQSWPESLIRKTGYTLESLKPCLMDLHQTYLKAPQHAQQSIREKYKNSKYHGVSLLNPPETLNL
Under “normalised enrichment score”, `R5A` is recorded as 0.386.
Under “normalised enrichment score”, `R5K F9L` is recorded as 0.278.
Under “normalised enrichment score”, `S11A` is recorded as 1.14.
For `P1A`, “normalised enrichment score” read -0.106.
`T12A`: “normalised enrichment score” 1.45.
`H3A`: “normalised enrichment score” 4.81.
Under “normalised enrichment score”, `V6A` is recorded as 2.4.

Sample 2 — technique: protein-binding microarray; molecule type: double-stranded DNA, one strand shown; medium: in vitro; tested at: 940 nM top; setting: 60-bp whole probe; added: salmon DNA 0.4 mg/ml; reference: random background probes; reading: higher = stronger binding; shared flanks, not repeated: GCCTAGCAC … GTCTTGATTCGCTTGACGCTGCTG
Target: Interferon regulatory factor 5, full length, phosphomimetic (IRF5, Homo sapiens, UniProt Q13568-2, residues 1-514, S451D/S453D/S456D/S462D)
`ATAGGTTTCGGGTTTCGGTTAGTGCTA` — result for “fitted relative affinity”: 10.8 z-score.
`GACGGTCTCCTTATCCTGAGGTGCTAG` — result for “fitted relative affinity”: 0.226 z-score.
For `CCAACTCTGTTTTCGCTTTCTGTGCTA`, “fitted relative affinity” read 1.87 z-score.
Under “fitted relative affinity”, `GACGGACTGGATTTCGGGACGTGCTAG` is recorded as -0.363 z-score.
`TTAGGAATGGACACTGGGTTAGTGCTA`: “fitted relative affinity” -0.254 z-score.
`TAAGGTATCGGTCTCGGTTAGTGCTAG`: “fitted relative affinity” 7.57 z-score.
Under “fitted relative affinity”, `TCATCTTTCGATGCTAAAACTGTGCTA` is recorded as 2.53 z-score.
For `ATACTGAGAAAGCACTGGACGTGCTAG`, “fitted relative affinity” read 0.168 z-score.
Under “fitted relative affinity”, `TCAGTTTTCAGTTTCACACTGTGCTAG` is recorded as 3.29 z-score.
`TTAGGTATCCTCCTCCTTTAGTGCTAG` — result for “fitted relative affinity”: 0.589 z-score.
`GACGGTTTCCTTTTGCTGACGTGCTAG` — result for “fitted relative affinity”: 1.99 z-score.
Under “fitted relative affinity”, `AGAATCTTAGATATTAAACTGTGCTAG` is recorded as -0.409 z-score.
Under “fitted relative affinity”, `GACGGTATCGGACTGGGGCCGTGCTAG` is recorded as 2.52 z-score.
Under “fitted relative affinity”, `GACGGTATCGACTATCGTGACGTGCTA` is recorded as 4.63 z-score.
`GAAGGTATCGGACTGGGGACGTGCTAG`: “fitted relative affinity” 1.78 z-score.
For `TTACGTATCGGTCTCGGTTAGTGCTAG`, “fitted relative affinity” read 8.31 z-score.
`GACGGTCTCCTTTTGCTGACGTGCTAG`: “fitted relative affinity” 0.311 z-score.
`TAAGTTTCACTTTCCAAAGCGTGCTAG`: “fitted relative affinity” 9.46 z-score.
Under “fitted relative affinity”, `TCACACATCTCACTCTAACTGTGCTAG` is recorded as 1.25 z-score.
Under “fitted relative affinity”, `TTAGATATCCGGTTTCGATTAGTGCTA` is recorded as 6.46 z-score.
`TTAGAACGGGGGTATCGATTAGTGCTA`: “fitted relative affinity” 6.92 z-score.
`TTAGATTTCAGTTCCGATCAGTGCTAG`: “fitted relative affinity” 1.87 z-score.
`TTAGGCTTCGGTATCGGTTAGTGCTAG`: “fitted relative affinity” 4.76 z-score.
`GACGGACTGCTTCTCCTGCCGTGCTAG` — result for “fitted relative affinity”: -0.196 z-score.
`GCCGATATCGGGACTGGAGACGTGCTA`: “fitted relative affinity” -0.243 z-score.

Sample 3 — technique: EMSA with sequencing; molecule type: double-stranded DNA, one strand shown; medium: in vitro; tested at: 10 and 20 nM; reference: negative control set to 0; reading: higher = stronger binding
Target: Hepatocyte nuclear factor 3-alpha (Foxa1, Mus musculus, UniProt P35582, residues 1-468, full length assumed)
Setting: whole designed probe, mean of two concentrations, ends assumed
Target sequence (chain): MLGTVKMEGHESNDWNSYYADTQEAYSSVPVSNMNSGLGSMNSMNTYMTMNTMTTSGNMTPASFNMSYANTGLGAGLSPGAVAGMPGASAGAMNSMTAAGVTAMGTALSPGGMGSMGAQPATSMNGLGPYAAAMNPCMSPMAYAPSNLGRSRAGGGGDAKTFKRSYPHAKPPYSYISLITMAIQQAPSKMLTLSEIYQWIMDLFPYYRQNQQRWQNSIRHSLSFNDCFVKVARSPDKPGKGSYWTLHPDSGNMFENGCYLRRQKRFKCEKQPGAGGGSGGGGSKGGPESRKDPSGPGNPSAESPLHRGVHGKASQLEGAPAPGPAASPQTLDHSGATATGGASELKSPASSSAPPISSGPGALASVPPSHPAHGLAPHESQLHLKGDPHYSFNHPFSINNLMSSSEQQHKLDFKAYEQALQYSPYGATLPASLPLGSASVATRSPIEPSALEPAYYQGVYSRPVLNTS
Under “normalised bound fraction”, `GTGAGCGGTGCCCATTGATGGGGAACTCTGTAGCCTTTGCAAATAACCTTTTTGAACAAAAACGGCAATGGCTCATTCCAAACCCGATCAAAGAGGTATGCATGACTCACAGCCACTAAATAAACATTGATGCCTGATGGCAGTAATATGGCTATTTATATTCAGAGCCTGATTTAACCAGTGGCATTCCTGTAATAAGATAATAAGCATGAGCTGTTTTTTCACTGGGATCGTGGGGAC` is recorded as 0.483 ratio.
`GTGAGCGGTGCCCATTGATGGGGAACTGATTTTTAAAGATTTTATGATTCTGATACCAATATTCAAAAGTATATTATTTAATATATTTGTCTATGTCACTTGGCAAATACTATATTCATGTTTACACAGATCAATTTACATATGCATCTTTATATTTTTATCCCATCATTATTACTAATATAATTGTGCCAGTTGTGCCTACAGTTATTTTCTTGTATGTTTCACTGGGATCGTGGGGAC` — result for “normalised bound fraction”: 0.45 ratio.
`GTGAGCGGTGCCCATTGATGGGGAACGGTGTTTAAGAAAACAAGCCAGAATTAGATAAAGTAAAACTTACTTTATTAAATAGGATGGACACCACTTCTCCCAAGAGAACTGTCTCCAAAAGTAATCTAGAAAGATCAATCTGGTAAACTCACATCATACAGGTTCCCGTGTAAGGTATCGGGTTCAGGCAGGTGGAAGCCAAATGATCGTAATTAAAGTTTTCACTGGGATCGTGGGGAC`: “normalised bound fraction” 0.0148 ratio.
`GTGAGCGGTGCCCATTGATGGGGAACAGAGGAATCCCAGAGAGCTGTTCTTTACAGTTTTGTTTCTTGTTTAAATTCGAGAACTAAAAATCCAGTCCCAGAGTGCGTACATAGTCAAAGCAATCTTGGAAAGTTCAGAAGTTATGCAGTGAACCATCAGAGCCTATTAAGAATCTAATCTTTCTCCAAGTAATGTTGGGGTCAGGCAGCTAACTGCAACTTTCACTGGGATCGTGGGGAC`: “normalised bound fraction” -0.0267 ratio.
Under “normalised bound fraction”, `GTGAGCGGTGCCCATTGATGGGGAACTTTCCAGCCCTTAGTTTCTGGCATTTAACCTGACTCTGGTCCCTGAATGGCATGGGAGTGCTTTCAACCACAGGTTTCCACATTCATGCCACTTGTTTGCTTTTTGATCTACAGAGATCTTTATCTGACTCATTCTTGCTTTGTGTTTCCAATGGAGAAAGAGCTTGGGAAGGGAGGATCCTAATTGTCTAAATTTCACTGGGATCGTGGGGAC` is recorded as 0.287 ratio.
`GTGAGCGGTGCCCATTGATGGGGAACTCTCCCCTGCAGGAGTTTGGACTAATCAGGTCACTACACCCTGACACAGCAGTCTCCAGTCTCTACCACTCATTGTTTGCAACAAGTCGAATTGTCAACAGACCACAGAGAAGTTAGCAACAGGGAAGGGAAAACACTTTAATCTCAAGGTCATCCCCAGGGTTCAGCAGGACATATATCCTATATCGAATCATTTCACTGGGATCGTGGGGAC` — result for “normalised bound fraction”: 0.157 ratio.
Under “normalised bound fraction”, `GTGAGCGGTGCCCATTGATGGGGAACAGCTCAGAAAATAAAAGGGATAGAAAATCTACTTTATGACAGAACTATGTGTTTCTTTTGAATTGAAAAAAGTTTACATGGACAGTATCAATGTAAACAAATACTTTTTCTTCCTTGTTTGTAAATCAATATGAACTAATTGATTTATGATTTGTACGCATTGTAAACATGGTCCTCAATTAGTTCCCACATATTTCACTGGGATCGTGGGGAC` is recorded as 0.457 ratio.
`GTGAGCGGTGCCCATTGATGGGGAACTAGGCCAGCGGTTTCTTGTATAAAGGAAACAAAAGTCATATAATTCCTTTTACTAAGGTCACTGACCTTTGCAGCTTCTTCCACGATGAGAGAGTAAACAGAAGATGACTAAGTGTTTTTGACATCCAAAGTCACCCACAGCCAGAACCAGAGTCTGGGAGAAGTGTATTTTGGACATCGTGACCTCAACTATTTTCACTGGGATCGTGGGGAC` — result for “normalised bound fraction”: 0.298 ratio.

Sample 4 — technique: universal PBM; molecule type: double-stranded DNA, one strand shown; medium: in vitro; tested at: 600 nM; reading: higher = stronger binding
Target: Sal-like protein 4, full length isoform A (SALL4, Homo sapiens, UniProt Q9UJQ4, residues 1-1053)
UniProt Q9UJQ4, sequence (whole entry, looked up): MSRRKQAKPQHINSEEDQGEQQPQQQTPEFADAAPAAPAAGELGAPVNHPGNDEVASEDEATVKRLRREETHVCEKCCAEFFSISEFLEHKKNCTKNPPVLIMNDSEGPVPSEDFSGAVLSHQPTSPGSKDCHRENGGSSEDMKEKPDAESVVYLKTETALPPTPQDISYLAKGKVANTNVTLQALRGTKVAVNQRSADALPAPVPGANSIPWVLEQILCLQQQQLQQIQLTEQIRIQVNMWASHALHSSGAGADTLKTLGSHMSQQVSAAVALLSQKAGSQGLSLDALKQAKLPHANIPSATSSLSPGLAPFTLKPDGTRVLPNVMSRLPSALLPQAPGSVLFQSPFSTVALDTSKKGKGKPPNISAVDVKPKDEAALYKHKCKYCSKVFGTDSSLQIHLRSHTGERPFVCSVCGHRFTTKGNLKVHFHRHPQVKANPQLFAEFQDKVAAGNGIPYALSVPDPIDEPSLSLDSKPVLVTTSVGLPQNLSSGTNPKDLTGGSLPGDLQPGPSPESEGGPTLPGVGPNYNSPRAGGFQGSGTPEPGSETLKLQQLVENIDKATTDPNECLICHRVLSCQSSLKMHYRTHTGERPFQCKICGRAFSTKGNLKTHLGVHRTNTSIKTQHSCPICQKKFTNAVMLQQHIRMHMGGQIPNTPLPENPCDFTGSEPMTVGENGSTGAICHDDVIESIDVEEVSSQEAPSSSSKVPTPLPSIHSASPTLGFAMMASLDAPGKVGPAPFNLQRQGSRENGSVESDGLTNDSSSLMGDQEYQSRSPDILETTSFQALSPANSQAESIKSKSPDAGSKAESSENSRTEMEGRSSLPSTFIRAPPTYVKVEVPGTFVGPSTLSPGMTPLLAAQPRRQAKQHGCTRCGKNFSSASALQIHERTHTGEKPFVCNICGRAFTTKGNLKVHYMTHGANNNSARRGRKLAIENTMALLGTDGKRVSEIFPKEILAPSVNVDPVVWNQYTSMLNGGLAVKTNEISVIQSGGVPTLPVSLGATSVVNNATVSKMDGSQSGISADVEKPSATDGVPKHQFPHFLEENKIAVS
Setting: 8-mer, flanks averaged, mean of replicates
`GCTCTCCA` has an E-score of -0.115.
`ACGACTGC` gave an E-score of -0.157.
For `TGATTCAA`, the E-score was 0.176.
The E-score of `CAATCTAG` is reported as 0.204.
The E-score of `CCATAGAA` is reported as 0.0961.
With `AAGAATCC` the E-score was 0.032.
With `TCACGACA` the E-score was 0.0367.
`CAGATGAA` gave an E-score of 0.108.
`AGTTGATA` gave an E-score of 0.229.
With `TCCGTAGA` the E-score was -0.0324.
`AAAAGTAA` gave an E-score of 0.327.
The E-score of `AAAACACG` is reported as 0.105.
The E-score of `CACACCCC` is reported as -0.151.
With `CATTGCGC` the E-score was -0.0199.
The E-score of `CGGAGCAA` is reported as 0.00642.
With `ACAATCCA` the E-score was 0.214.
With `ATAAGTCG` the E-score was 0.136.
With `GTTCGCGA` the E-score was -0.0358.
With `GAACGCTA` the E-score was -0.0824.
`ACACTGGA` gave an E-score of 0.0254.
The E-score of `AGGTACGA` is reported as 0.0744.
`CACGTAGG` has an E-score of -0.0639.
`CCGGTTTC` has an E-score of -0.279.
`CACAAACG` has an E-score of 0.0476.
For `CGCTCGCA`, the E-score was -0.237.

Sample 5 — technique: DHFR PCA, deep sequencing; medium: yeast; added: (+)-ABA 0.0091 µM; reference: wild-type fitted maximum; reading: higher = stronger binding
Target: ABI1, truncated, D143A, DHFR fusion (Arabidopsis thaliana)
Setting: methotrexate growth selection, single substitutions
Parent: PYL1, truncated, DHFR fusion (Arabidopsis thaliana); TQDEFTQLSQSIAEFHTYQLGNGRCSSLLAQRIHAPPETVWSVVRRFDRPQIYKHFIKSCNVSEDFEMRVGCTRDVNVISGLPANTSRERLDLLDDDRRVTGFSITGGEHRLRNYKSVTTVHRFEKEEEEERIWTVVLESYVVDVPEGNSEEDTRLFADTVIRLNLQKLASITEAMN; partner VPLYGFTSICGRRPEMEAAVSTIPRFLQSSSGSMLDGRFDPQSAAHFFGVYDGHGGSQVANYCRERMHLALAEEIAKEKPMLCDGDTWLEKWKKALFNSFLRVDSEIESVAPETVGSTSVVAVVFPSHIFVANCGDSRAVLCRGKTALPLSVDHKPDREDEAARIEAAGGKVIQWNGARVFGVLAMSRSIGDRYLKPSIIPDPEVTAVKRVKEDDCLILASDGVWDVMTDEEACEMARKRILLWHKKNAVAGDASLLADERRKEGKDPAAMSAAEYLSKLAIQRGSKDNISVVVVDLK
`L166K` — result for “relative binding score”: -1.6%.
For `R49F`, “relative binding score” read -3.9%.
`H122C`: “relative binding score” -10.4%.
`C25K` — result for “relative binding score”: 0.91%.
For `F5V`, “relative binding score” read 19.7%.
`R69W`: “relative binding score” -3.99%.
`Q10T`: “relative binding score” 24.5%.
`E147T`: “relative binding score” 8.43%.
`V118P` — result for “relative binding score”: 1.72%.
Under “relative binding score”, `M176C` is recorded as 5.41%.
Under “relative binding score”, `R132Y` is recorded as 4.7%.
